# Measurements pooled from the literature.
# Protocols differ between the studies behind these lines. Numbers after ± are the reported error.
SMILES,tested on,assay,system,setting,how to read,quantity,value
C[n+]1cc2c3c(ccc2c2ccc4cc5c(cc4c21)OCO5)OCO3,human iPSC-derived cardiomyocytes,"MyBP-C/MYH ratio, plate-normalised SD score",,"concentration not given, primary screen",direction not given,activity score,8.3
CC(C)C[C@H](NC(=O)[C@H](Cc1cccc2ccccc12)NC(=O)OCc1ccccc1)C(=O)N[C@H](CS)C[C@@H]1CCNC1=O,Norwalk virus,"replicon RNA level, RT-qPCR","HG23 cells, GI.1 replicon",96 h,,EC50,> 10 µM
CCOc1nc(N)ncc1-c1cn([C@@H]2O[C@](F)(CO)[C@@H](O)[C@H]2O)cn1,Dengue virus,viral replication,"Huh-7, DENV-2",48 h,,EC50,> 100 µM
CC(C)C[C@H](NC(=O)[C@H](Cc1cccc2ccccc12)NC(=O)OCc1ccccc1)C(=O)N[C@H](CO)CNC(=O)N1CCC1,Norwalk virus,"replicon RNA level, RT-qPCR","HG23 cells, GI.1 replicon",96 h,,EC50,> 10 µM
CC(C)C(=O)OC[C@@]1(F)O[C@@H](n2cnc(-c3cnc[nH]c3=O)c2)[C@H](OC(=O)C(C)C)[C@@H]1OC(=O)C(C)C,Dengue virus,viral replication,"Huh-7, DENV-4",48 h,,EC50,> 100 µM
COC(=O)N[C@H](C(=O)N1CCC[C@H]1c1ncc(-c2ccc(-c3ccc(-c4cnc([C@@H]5CCCN5C(=O)[C@@H](NC(=O)OC)C(C)C)[nH]4)cc3)cc2)[nH]1)C(C)C,Human alphaherpesvirus 2,multi-cycle viral growth,Vero,,,EC50,> 11 µM
C[C@H]1[C@H](OC(=O)CCC(=O)O)O[C@@H]2O[C@@]3(C)CC[C@H]4[C@H](C)CC[C@@H]1[C@@]24OO3,human iPSC-derived cardiomyocytes,"MyBP-C/MYH ratio, plate-normalised SD score",,"concentration not given, primary screen",direction not given,activity score,3.9
CCOC(=O)c1ccccc1-c1c2ccc(=O)cc-2oc2cc(OC3C=C(C)C(=O)O3)ccc12 (centres unmarked),Phelipanche ramosa,"seed germination, stimulant",seeds,,,EC50,0.0077 µM
COCC(=O)N1CCC[C@H](C(=O)NCc2nc(-c3ccccc3)cs2)C1,Plasmodium falciparum,SYBR Green,3D7,72 h,,EC50,0.089 ± 0.026 µM
CC(C)C[C@H](NC(=O)C[C@H](O)[C@H](CC(C)C)NC(=O)[C@H](Cc1c[nH]cn1)NC(=O)CNC(=O)[C@@H](NC(=O)[C@H](C)NC(=O)[C@H](Cc1c[nH]c2ccccc12)NC(=O)[C@H](CCC(N)=O)NC(=O)[C@@H](Cc1ccccc1)NC(=O)COCCOCCNC(=O)CCC(C(=O)O)N1CCN(CC(=O)O)CCN(CC(=O)O)CCN(CC(=O)O)CC1)C(C)C)C(N)=O (some centres unmarked) [lutetium-177 labelled],,,"BALB/c nu/nu mice, carcass","100 pmol, 1 h, together with: PA 300 µg",,tissue uptake,2.8 ± 0.8 %ID
Cc1cc(OC(C)C)ccc1C(=O)C(C)(C)NC(=O)c1sccc1C,Botrytis cinerea,mycelial growth on agar,B05.10,"120 h, 20 °C",,EC50,6 ng/mL
Cn1cc(-c2ccc(-c3cncc(Cl)c3N3CCC4(CCNC4=O)CC3)cc2)cn1,COLO 205,"gene expression, microarray, item: ANKRD37 mRNA",,"concentration not given, 6 h",relative to: untreated cells,log2 fold change,3.72
COc1ncncc1-c1cn([C@@H]2O[C@](F)(COC(=O)C(C)C)[C@@H](OC(=O)C(C)C)[C@H]2OC(=O)C(C)C)cn1,Dengue virus,viral replication,"Huh-7, DENV-4",48 h,,EC50,18.8 µM
Cc1ccc(N(c2ccc(NC(=O)CN(C)c3ccccc3N3CCCC3=O)cc2)C(C)C)cc1,Plasmodium falciparum,"ring-stage invasion, nanoluciferase",3D7 NanoLuc late schizonts,4 h pulse,,EC50,0.006 µM

# Some of these lines once more:
SMILES,tested on,assay,system,setting,how to read,quantity,value
CC(C)C[C@H](NC(=O)[C@H](Cc1cccc2ccccc12)NC(=O)OCc1ccccc1)C(=O)N[C@H](CO)CNC(=O)N1CCC1,Norwalk virus,"replicon RNA level, RT-qPCR","HG23 cells, GI.1 replicon",96 h,,EC50,> 10 µM
CC(C)C(=O)OC[C@@]1(F)O[C@@H](n2cnc(-c3cnc[nH]c3=O)c2)[C@H](OC(=O)C(C)C)[C@@H]1OC(=O)C(C)C,Dengue virus,viral replication,"Huh-7, DENV-4",48 h,,EC50,> 100 µM
